Measured values gathered from unrelated publications.
Each line is one published result; not all experiments were run side by side. Values joined by “and” are separate records of one study, mostly repeats; a detail may differ. Numbers after ± are the reported error.
UniProt P81908, sequence (whole entry, looked up): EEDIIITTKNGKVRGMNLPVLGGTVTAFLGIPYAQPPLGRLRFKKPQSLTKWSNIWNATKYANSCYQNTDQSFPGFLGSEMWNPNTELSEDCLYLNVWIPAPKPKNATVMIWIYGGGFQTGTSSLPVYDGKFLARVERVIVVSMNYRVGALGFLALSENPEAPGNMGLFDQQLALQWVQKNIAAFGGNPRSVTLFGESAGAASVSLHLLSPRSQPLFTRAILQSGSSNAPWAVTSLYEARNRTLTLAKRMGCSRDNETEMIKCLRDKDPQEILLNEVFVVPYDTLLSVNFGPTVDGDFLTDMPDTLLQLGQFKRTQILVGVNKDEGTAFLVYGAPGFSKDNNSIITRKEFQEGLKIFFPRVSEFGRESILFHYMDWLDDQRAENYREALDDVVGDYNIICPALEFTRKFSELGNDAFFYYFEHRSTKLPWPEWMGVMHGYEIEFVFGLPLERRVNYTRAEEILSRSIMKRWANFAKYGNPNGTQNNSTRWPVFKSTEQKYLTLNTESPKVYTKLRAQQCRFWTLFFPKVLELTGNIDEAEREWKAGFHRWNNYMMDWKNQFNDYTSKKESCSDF
UniProt Q9Y6L6, sequence (whole entry, looked up): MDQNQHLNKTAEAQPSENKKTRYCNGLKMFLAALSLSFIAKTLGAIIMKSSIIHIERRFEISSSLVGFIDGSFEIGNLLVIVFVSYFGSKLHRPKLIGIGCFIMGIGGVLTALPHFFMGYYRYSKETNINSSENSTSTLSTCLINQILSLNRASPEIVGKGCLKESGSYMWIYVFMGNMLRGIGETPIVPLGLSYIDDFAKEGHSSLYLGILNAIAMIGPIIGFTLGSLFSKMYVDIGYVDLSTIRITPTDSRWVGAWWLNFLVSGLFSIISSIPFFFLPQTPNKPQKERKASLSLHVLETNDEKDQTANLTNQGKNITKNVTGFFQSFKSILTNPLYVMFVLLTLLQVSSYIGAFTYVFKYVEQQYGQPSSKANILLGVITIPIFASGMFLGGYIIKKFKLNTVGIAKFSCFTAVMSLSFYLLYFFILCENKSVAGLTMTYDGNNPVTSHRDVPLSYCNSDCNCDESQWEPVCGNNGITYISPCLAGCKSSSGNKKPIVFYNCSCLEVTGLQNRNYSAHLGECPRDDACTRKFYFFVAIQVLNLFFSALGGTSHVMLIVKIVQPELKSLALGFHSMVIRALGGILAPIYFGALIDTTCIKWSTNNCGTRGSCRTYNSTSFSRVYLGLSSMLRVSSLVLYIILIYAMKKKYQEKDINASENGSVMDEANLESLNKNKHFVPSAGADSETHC
UniProt Q12809, sequence (whole entry, looked up): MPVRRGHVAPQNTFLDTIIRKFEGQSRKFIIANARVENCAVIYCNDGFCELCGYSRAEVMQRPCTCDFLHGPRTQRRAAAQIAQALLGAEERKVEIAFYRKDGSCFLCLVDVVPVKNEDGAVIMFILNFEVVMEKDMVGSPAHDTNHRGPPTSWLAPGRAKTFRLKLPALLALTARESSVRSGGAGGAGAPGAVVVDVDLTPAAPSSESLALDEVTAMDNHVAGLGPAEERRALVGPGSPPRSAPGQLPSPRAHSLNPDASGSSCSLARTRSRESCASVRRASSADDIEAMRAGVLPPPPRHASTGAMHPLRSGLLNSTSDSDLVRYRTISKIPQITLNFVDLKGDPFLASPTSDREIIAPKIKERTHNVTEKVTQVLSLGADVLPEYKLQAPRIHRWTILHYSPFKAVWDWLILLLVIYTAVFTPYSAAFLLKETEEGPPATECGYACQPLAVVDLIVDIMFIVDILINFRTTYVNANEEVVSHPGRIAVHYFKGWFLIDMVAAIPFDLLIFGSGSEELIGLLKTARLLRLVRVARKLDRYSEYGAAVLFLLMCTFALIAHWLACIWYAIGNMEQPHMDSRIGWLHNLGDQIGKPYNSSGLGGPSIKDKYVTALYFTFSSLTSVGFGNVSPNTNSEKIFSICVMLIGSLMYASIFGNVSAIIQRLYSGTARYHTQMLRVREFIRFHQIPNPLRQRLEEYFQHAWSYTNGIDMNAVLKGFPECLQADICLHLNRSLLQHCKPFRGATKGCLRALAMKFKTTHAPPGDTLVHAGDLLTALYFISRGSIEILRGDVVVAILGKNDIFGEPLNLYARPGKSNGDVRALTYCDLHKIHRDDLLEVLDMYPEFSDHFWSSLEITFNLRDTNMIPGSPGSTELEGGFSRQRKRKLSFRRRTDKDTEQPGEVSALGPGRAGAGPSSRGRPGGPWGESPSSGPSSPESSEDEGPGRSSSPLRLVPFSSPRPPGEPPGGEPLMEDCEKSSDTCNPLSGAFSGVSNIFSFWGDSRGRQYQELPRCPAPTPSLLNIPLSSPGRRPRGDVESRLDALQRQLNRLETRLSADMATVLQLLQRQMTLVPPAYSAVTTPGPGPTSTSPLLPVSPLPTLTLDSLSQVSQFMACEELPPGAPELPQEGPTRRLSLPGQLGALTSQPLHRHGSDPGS
UniProt P06276, sequence (whole entry, looked up): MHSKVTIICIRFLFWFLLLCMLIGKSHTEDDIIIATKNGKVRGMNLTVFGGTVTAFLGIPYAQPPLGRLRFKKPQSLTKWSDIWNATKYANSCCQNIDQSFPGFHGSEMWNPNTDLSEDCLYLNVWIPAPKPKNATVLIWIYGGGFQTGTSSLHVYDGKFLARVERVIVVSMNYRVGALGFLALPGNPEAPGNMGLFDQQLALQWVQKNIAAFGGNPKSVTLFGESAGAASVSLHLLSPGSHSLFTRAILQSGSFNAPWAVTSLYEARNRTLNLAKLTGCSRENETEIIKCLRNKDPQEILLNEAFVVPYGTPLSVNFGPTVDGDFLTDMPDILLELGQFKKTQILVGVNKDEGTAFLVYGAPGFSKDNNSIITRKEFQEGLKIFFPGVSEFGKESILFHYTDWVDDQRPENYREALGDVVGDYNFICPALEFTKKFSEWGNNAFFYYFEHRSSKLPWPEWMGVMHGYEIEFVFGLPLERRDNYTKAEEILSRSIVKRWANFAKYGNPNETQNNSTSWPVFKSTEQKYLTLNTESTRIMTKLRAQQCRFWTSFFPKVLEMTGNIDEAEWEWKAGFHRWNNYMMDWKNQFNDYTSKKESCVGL
UniProt Q2PAY2, sequence (whole entry, looked up): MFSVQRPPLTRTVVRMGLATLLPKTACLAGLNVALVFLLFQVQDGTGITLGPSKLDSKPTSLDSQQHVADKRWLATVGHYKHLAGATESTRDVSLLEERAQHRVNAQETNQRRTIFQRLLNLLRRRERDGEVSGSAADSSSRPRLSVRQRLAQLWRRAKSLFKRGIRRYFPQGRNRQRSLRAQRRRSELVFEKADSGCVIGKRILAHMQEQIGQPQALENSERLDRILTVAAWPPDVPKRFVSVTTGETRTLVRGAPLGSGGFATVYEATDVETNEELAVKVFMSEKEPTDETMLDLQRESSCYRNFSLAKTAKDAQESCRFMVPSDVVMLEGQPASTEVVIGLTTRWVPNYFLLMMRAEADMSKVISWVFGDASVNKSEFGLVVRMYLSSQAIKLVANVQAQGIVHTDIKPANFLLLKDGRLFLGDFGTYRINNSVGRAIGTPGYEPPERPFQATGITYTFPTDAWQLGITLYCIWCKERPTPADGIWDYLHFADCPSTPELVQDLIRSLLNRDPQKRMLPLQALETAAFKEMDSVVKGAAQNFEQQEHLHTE
UniProt P14650, sequence (whole entry, looked up): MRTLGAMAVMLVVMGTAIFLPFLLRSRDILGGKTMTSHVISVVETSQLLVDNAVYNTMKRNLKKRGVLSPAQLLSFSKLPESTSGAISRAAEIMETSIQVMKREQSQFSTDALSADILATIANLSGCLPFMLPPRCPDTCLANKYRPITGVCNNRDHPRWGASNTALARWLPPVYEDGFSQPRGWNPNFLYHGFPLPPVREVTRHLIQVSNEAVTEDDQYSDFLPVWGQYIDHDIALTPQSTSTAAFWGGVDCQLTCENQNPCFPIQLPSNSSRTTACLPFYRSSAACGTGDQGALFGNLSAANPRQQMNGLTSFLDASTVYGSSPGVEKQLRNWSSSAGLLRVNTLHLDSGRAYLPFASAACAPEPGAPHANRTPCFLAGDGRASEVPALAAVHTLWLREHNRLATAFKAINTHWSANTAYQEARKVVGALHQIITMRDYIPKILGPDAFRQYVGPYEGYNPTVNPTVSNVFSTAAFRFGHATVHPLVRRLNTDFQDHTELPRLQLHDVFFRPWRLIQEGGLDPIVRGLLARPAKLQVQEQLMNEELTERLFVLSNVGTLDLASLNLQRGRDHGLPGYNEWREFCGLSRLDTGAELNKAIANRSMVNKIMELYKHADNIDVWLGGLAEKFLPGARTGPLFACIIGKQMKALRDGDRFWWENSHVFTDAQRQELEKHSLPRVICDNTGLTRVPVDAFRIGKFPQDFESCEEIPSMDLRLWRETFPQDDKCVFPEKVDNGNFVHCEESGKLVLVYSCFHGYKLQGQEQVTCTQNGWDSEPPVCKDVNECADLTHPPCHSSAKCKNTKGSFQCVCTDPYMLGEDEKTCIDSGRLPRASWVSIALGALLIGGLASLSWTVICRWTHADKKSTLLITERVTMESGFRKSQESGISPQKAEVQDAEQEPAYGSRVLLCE

| Substance | tested on | assay | system | conditions | measurement | value |
| --- | --- | --- | --- | --- | --- | --- |
| [N-]=[N+]=Nc1ccc(C(=O)CSC[C@H](NC(=O)CC[C@H](N)C(=O)O)C(=O)NCC(=O)O)cc1 | ERRα (human) | reporter gene, antagonist, luciferase reporter qHTS | – | – | IC50 | 0.53 µM |
| O=C(NCCCCCn1ccc2ccc(F)cc21)Oc1cccc2[nH]ccc12 | Cholinesterase (BCHE, Equus caballus, UniProt P81908) | enzyme activity, inhibitor, HPLC | – | – | IC50 | 0.55 µM |
| CC12CC3CC1(C)C1(C)CC3(CN)CC21C | NMDA receptor (rat) | intracellular Ca2+ increase, inhibitor | rat cerebellar granule neurons | added: 100 µM NMDA plus 10 µM glycine | IC50 | 2.8 ± 1.1 µM |
| CCOC(=O)c1c(CSc2ccccc2)n(C)c2cc(Br)c(O)c(CN(C)C)c12 | Solute carrier organic anion transporter family member 1B1 (SLCO1B1, Homo sapiens, UniProt Q9Y6L6) | transport, inhibitor | – | 10 (unit not given), pre-incubation, added: estrone-3-sulfate | IC50 | 17.5 ± 11.9 µM |
| moenomycin | Transglycosylase (Staphylococcus aureus, UniProt Q9R744) | transglycosylase activity, inhibitor | RN4220 | 1 h, pH 7.0, 30 °C, 10% DMSO, added: [14C]-lipid II D-Ala-D-Lac 4 µM | IC50 | 0.19 ± 0.03 µM |
| C[C@]12O[C@H](C[C@]1(O)C(=O)O)n1c3ccccc3c3c4c(c5c6ccccc6n2c5c31)CNC4=O | Leucine-rich repeat serine/threonine-protein kinase 2 (LRRK2, Homo sapiens, UniProt Q5S007) | LRRKtide phosphorylation, inhibitor | – | 25 °C, added: 1 µM ATP | IC50 | ~0.05 µM |
| CC1=C(C(=O)NC(=O)c2cnccn2)C(c2ccncc2)NC(=S)N1 (centres unmarked) | Cholinesterase (BCHE, Equus caballus, UniProt P81908) | – | – | – | IC50 | 3.46 µM and 3.4 µM |
| Cc1cc(C)c2c(N)c(C(=O)NCc3ccc4c(c3)OCO4)sc2n1 | GABAA receptor benzodiazepine site | binding, radioligand displacement | – | approximate estimate, added: flunitrazepam | IC50 | ~10 µM |
| NS(=O)(=O)c1ccc(NN=C2C(=O)Nc3ccc(C(=O)NCc4ccncc4)cc32)cc1 | ROP18 (Toxoplasma gondii, UniProt Q2PAY2) | enzyme activity, inhibitor | – | – | IC50 | 8.13 µM |
| [O-]/[N+](=C\c1ccc2cccc(O)c2n1)Cc1ccccc1 | Cholinesterase (BCHE, Homo sapiens, UniProt P06276) | inhibitor, Ellman method | – | – | IC50 | 0.0011 ± 0.00031 µM |
| NC(=S)Nc1ccccc1 | Thyroid peroxidase (Tpo, Rattus norvegicus, UniProt P14650) | tyrosine iodination, LC-MS/MS | rat thyroid microsomes | added: KI 300 µM, H2O2 40 µM | IC50 | 2.51 µM |
| CC(C)NP(=O)(NC(C)C)OP(=O)(NC(C)C)NC(C)C | Butyrylcholinesterase (Bche, Rattus norvegicus, UniProt Q9JKC1) | enzyme activity, inhibitor, radiometric | rat, aging, cortex homogenate | 15 min, 37 °C | IC50 | 2 µM |
| Clc1ccc(C(c2ccccc2Cl)C(Cl)(Cl)Cl)cc1 (centres unmarked) | Voltage-gated inwardly rectifying potassium channel KCNH2 (KCNH2, Homo sapiens, UniProt Q12809) | thallium influx, inhibitor, primary qHTS | hERG-transduced cells | two runs | IC50 | 17 ± 11 µM |
| Cn1cc(C2=C(c3cn(CCCN)c4ccccc34)C(=O)NC2=O)c2ccccc21 | Putative glycogen synthase kinase (Leishmania major, UniProt Q4QE15) | enzyme activity, inhibitor | – | 90 min, 30 °C, added: ATP 2 µM | IC50 | 1.63 µM |
| O=c1c2ccccc2[se]n1-c1ccccc1 | Trypanothione synthetase (Trypanosoma brucei brucei, UniProt Q586P2) | enzyme activity, BIOMOL Green phosphate release | – | 1 h preincubation | IC50 | 5 µM and 5.3 µM |
| CN[C@@](C)(C[18F])C(=O)O | DU-145 tumour model | – | host not given, heart | 1 h, tumour-bearing | tracer uptake | 2.6 %ID/g |
| O[C@H]1[C@H]2[C@H](O)CCCN2C[C@H]1O | Allium cepa α-mannosidase | enzyme activity, inhibitor | – | pH 4.0, 40 °C, added: 0.8 mM pNP-α-mannoside | IC50 | 0.2 µM |
